{"data": "Measured values pooled from the literature", "note": "Each line is one published result; not all experiments were run side by side. ± gives the spread as reported.", "sequence of UniProt P27487 (whole entry, looked up)": "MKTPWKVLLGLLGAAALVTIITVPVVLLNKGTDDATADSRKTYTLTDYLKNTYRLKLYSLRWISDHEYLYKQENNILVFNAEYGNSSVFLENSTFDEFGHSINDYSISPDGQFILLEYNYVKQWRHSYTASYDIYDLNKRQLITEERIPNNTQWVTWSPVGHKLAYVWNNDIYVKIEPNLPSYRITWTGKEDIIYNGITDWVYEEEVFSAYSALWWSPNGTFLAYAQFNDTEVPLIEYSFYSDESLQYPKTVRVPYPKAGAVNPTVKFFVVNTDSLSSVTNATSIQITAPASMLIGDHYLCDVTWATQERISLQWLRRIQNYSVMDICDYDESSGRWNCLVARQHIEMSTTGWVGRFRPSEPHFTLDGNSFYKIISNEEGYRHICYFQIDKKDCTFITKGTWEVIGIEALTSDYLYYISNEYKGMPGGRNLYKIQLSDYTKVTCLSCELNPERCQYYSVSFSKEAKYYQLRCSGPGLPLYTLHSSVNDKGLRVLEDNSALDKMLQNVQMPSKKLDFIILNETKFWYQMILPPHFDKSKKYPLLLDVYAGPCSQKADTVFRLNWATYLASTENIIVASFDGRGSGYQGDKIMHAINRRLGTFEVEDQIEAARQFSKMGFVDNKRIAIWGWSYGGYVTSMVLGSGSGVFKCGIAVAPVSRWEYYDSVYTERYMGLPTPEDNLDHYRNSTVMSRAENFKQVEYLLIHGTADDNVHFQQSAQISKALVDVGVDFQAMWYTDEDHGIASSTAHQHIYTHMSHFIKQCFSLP", "sequence of UniProt P55212 (whole entry, looked up)": "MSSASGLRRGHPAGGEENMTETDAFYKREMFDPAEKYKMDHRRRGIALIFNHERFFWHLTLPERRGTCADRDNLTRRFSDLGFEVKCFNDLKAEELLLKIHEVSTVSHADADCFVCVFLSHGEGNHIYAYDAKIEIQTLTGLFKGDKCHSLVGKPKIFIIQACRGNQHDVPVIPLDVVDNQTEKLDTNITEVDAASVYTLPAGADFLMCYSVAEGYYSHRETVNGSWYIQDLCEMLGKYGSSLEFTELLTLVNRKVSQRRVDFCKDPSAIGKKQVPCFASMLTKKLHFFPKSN", "sequence of UniProt P20815 (whole entry, looked up)": "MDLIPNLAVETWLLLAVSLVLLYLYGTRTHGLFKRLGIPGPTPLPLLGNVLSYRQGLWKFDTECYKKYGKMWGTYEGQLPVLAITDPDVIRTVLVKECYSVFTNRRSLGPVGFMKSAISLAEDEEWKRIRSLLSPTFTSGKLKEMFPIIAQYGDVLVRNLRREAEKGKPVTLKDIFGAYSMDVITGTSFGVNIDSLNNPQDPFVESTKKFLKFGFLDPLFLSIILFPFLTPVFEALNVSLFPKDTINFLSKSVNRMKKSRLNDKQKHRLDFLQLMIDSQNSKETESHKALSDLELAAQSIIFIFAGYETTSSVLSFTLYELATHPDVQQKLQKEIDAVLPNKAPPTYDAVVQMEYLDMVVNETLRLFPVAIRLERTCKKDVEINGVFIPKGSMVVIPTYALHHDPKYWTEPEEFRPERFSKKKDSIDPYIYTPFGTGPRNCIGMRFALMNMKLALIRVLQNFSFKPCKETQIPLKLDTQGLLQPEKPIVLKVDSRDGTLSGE", "sequence of UniProt Q9H4A3 (whole entry, looked up)": "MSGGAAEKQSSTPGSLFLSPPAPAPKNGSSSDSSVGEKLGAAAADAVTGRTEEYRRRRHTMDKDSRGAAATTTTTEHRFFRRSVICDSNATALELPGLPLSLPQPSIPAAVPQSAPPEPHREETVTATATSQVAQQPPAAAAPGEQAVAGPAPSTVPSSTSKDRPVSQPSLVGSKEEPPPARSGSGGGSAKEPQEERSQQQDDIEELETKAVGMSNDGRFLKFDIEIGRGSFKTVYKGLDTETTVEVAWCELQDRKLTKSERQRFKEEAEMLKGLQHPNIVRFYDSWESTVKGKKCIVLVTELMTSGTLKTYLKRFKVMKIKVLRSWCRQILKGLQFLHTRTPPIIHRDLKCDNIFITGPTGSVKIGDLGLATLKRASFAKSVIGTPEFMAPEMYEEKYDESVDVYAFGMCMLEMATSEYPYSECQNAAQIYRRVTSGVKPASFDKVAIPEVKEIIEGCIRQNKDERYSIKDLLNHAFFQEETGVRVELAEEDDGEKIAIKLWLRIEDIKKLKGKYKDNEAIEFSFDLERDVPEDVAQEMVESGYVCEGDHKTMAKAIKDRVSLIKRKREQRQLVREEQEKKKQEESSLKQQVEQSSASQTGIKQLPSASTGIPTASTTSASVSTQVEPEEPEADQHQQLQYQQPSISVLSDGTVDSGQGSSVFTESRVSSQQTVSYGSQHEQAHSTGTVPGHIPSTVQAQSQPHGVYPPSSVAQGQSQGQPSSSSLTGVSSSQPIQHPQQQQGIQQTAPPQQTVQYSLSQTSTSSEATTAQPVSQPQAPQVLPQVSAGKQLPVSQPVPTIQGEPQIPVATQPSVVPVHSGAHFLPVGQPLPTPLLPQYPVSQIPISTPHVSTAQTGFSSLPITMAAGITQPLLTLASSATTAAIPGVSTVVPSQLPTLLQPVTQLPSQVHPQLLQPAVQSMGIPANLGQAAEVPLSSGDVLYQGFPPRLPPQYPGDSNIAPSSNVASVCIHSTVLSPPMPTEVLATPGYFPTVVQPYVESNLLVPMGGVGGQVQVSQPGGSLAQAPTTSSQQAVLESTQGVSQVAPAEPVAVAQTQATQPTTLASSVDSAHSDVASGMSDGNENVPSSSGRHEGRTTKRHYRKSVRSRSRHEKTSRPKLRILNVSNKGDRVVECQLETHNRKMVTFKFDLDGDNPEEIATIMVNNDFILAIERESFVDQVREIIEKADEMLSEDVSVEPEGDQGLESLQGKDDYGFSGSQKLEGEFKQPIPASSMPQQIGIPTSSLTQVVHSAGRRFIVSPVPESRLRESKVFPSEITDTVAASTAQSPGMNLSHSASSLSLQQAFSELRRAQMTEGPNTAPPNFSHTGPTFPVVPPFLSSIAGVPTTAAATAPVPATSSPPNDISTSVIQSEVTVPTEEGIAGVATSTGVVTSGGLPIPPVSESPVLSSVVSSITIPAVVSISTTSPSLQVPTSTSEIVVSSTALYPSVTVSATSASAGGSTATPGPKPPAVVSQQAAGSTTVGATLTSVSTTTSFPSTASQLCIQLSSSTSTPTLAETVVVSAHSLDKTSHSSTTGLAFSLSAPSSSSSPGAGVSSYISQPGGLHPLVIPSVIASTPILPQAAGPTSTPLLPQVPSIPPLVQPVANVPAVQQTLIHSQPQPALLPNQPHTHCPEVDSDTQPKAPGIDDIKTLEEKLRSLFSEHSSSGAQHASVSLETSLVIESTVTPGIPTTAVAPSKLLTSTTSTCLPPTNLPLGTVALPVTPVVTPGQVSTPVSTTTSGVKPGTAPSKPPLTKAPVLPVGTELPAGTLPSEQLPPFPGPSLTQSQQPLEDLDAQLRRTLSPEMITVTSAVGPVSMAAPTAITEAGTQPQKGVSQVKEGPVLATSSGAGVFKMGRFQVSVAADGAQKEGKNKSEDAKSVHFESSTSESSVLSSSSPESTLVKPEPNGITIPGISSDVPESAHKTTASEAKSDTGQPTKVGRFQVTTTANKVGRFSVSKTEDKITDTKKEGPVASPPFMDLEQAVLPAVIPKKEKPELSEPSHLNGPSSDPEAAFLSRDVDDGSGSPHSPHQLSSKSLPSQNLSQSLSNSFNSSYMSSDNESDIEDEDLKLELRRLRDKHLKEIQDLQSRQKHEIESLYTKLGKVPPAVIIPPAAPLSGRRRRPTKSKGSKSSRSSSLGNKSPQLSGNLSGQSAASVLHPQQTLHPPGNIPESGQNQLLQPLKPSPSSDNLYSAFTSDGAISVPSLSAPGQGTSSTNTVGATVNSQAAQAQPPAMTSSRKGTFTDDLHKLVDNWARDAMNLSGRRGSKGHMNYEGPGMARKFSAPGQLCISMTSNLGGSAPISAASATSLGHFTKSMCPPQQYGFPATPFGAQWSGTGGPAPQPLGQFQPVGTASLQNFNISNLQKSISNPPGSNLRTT"}
{"Compound": "Cc1cc(C(=O)NC(C)(C)COc2cccc3c2C(N)=NS(=O)(=O)N3)cc(C)n1", "tested on": "Salmonella typhimurium", "assay": "Ames test, confirmatory", "test system": "TA1535", "conditions": "5000 µg/plate", "scale": "baseline: solvent control", "endpoint": "revertant ratio", "value": 1}
{"Compound": "CN1CC[C@]23c4c5ccc(O[C@@H]6O[C@H](C(=O)O)[C@@H](O)[C@H](O)[C@H]6O)c4O[C@H]2[C@@H](O)C=C[C@H]3[C@H]1C5", "test system": "rat whole blood", "conditions": "500 nM, 4 months, -80 °C", "endpoint": "stability bias", "value": "5.22%"}
{"Compound": "CN(c1nc2ccccc2s1)C1CCN(CC(O)COc2ccc(F)cc2)CC1 (stereo not shown)", "tested on": "African green monkey cells", "conditions": "5 days", "endpoint": "CC50", "value": "15.3 µM"}
{"Compound": "COC(=O)[C@H]1[C@@H](OC(=O)c2ccccc2)C[C@@H]2CC[C@H]1N2", "test system": "rat whole blood", "conditions": "500 nM, 4 h, room temperature", "endpoint": "stability bias", "value": "-0.88%"}
{"Compound": "C[C@H]1CN(c2n[nH]c3nc(N[C@H]4CC[C@H](NS(=O)(=O)CCC(F)(F)F)CC4)ncc23)CCO1", "tested on": "WNK1 (Homo sapiens, UniProt Q9H4A3)", "assay": "inhibitor, Kinobeads competition profiling", "conditions": "0.8 µM", "scale": "baseline: vehicle", "endpoint": "relative abundance", "value": 1.11}
{"Compound": "CN(C)CCCN1c2ccccc2CCc2ccc(Cl)cc21", "tested on": "African green monkey cells", "conditions": "5 days", "endpoint": "CC50", "value": "16 µM"}
{"Compound": "O=C1c2c(O)c(=O)ccn2N([C@@H]2c3ccccc3SCc3c2ccc(F)c3F)[C@@H]2COCCN12", "test system": "BALB/c mice, plasma", "conditions": "oral, 15 mg/kg baloxavir marboxil, 10 h", "endpoint": "plasma concentration", "value": "11.1 ng/mL"}
{"Compound": "CN1CC[C@]23c4c5ccc(O)c4O[C@H]2[C@@H](O[C@@H]2O[C@H](C(=O)O)[C@@H](O)[C@H](O)[C@H]2O)C=C[C@H]3[C@H]1C5", "test system": "rat whole blood", "conditions": "500 nM, 4 freeze-thaw cycles", "endpoint": "stability bias", "value": "-2.58%"}
{"Compound": "COc1cc(Nc2ncc(F)c(Nc3ccc4c(n3)NC(=O)C(C)(C)O4)n2)cc(OC)c1OC", "tested on": "Caspase-6 (CASP6, Homo sapiens, UniProt P55212)", "endpoint": "IC50", "value": "> 10 µM"}
{"Compound": "C[C@@H](O)[C@@H](CO)NC(=O)[C@@H](CCCNC(=N)N)NC(=O)[C@@H]1CCCN1C(=O)[C@@H]1CSSC[C@H](NC(=O)[C@H](Cc2ccccc2)NC(=O)CN2CCN(CC(=O)O)CCN(CC(=O)O)CCN(CC(=O)O)CC2)C(=O)N[C@@H](Cc2ccc(O)cc2)C(=O)N[C@@H](Cc2ccccc2)C(=O)N[C@@H](CCC(N)=O)C(=O)N[C@@H](CC(N)=O)C(=O)N1 [gallium-68 labelled]", "test system": "Wistar rat, healthy, Pituitary gland", "conditions": "intravenous, 8 MBq, 60 min, mean", "endpoint": "tissue uptake", "value": "0.5 %ID/g"}
{"Compound": "COc1cc2c(Oc3ccc4[nH]c(C)cc4c3F)ccnc2cc1OCC1(N)CC1", "test system": "paediatric recurrent refractory sarcoma", "conditions": "concentration not given, whole group", "endpoint": "grade 1 or 2 Cholesterol elevation", "value": "20.6%"}
{"Compound": "CC[C@@H]1C(=O)N(C)c2cnc(Nc3ccc(C(=O)N[C@H]4CC[C@H](N5CCN(CC6CC6)CC5)CC4)cc3OC)nc2N1C(C)C", "tested on": "African green monkey cells", "conditions": "5 days", "endpoint": "CC50", "value": "0.234 µM"}
{"Compound": "O=C(c1ccc(Cl)cc1)N1CCN2C(=O)N(OC(=O)N3CCOc4ccccc43)C(=O)C2C1 (stereo not shown)", "tested on": "DPP4 (Homo sapiens, UniProt P27487)", "assay": "enzyme activity, inhibitor, MS-based ABPP", "test system": "SW-620 in situ", "conditions": "10 µM, 2 h, 37 °C", "scale": "baseline: compound over DMSO, lower = stronger inhibition", "endpoint": "median ratio", "value": 1.09}
{"Compound": "CC(C)CC(=O)OC[C@H]1O[C@@](C#N)(c2ccc3c(N)ncnn23)[C@H](O)[C@@H]1O", "tested on": "Cytochrome P450 3A5 (CYP3A5, Homo sapiens, UniProt P20815)", "assay": "metabolic stability", "test system": "recombinant enzyme", "conditions": "1 µM, 30 min", "endpoint": "remaining compound", "value": "34.1 ± 0.8%"}
{"Compound": "CC[C@H](C)[C@H](NC(=O)[C@H](Cc1ccccc1)NC(=O)[C@H](CCC(=O)O)NC(=O)[C@H](CCCNC(=N)N)NC(=O)[C@H](C)NC(=O)[C@H](C)NC(=O)[C@H](CCC(N)=O)NC(=O)[C@H](CCC(=O)O)NC(=O)[C@H](CCC(=O)O)NC(=O)[C@H](CC(C)C)NC(=O)[C@H](Cc1ccc(O)cc1)NC(=O)[C@H](CO)NC(=O)[C@H](CO)NC(=O)[C@@H](NC(=O)[C@H](CC(=O)O)NC(=O)[C@H](CO)NC(=O)[C@@H](NC(=O)[C@H](Cc1ccccc1)NC(=O)[C@@H](NC(=O)CNC(=O)[C@H](CCC(=O)O)NC(=O)[C@H](C)NC(=O)CCc1c[nH]cn1)[C@@H](C)O)[C@@H](C)O)C(C)C)C(=O)N[C@@H](C)C(=O)N[C@@H](Cc1c[nH]c2ccccc12)C(=O)N[C@@H](CC(C)C)C(=O)N[C@H](C(=O)N[C@@H](CCCNC(=N)N)C(=O)NCC(=O)N[C@@H](CCCNC(=N)N)C(=O)N[C@@H](CCCCNC(=O)COCCOCCNC(=O)COCCOCCNC(=O)CC[C@H](NC(=O)CCCCCCCCCCCCCCCCC(=O)O)C(=O)O)C(=O)NCC(=O)NCC(=O)N[C@@H](CO)C(=O)N[C@@H](CCCCNc1c(NCCCCCN(O)C(=O)CCC(=O)NCCCCCN(O)C(=O)CCC(=O)NCCCCCN(O)C(C)=O)c(=O)c1=O)C(=O)O)C(C)C [zirconium-89 labelled]", "test system": "rat, duodenum content", "conditions": "intravenous, 3 nmol/kg, 168 h", "endpoint": "tissue uptake", "value": "0.03 %ID/g"}
{"Compound": "CCCC(C(=O)OCCN(CC)CC)(c1ccccc1)c1ccccc1", "tested on": "African green monkey cells", "conditions": "5 days", "endpoint": "CC50", "value": "24 µM"}
{"Compound": "O=c1ccc2ccccc2o1", "tested on": "HepaRG 3D spheroids", "assay": "mitochondrial mass", "conditions": "168 h, high-content imaging", "endpoint": "point of departure", "value": "616 µM"}
{"Compound": "COc1cccc(-c2n[nH]c(SCc3ccccn3)n2)c1OC", "tested on": "Salmonella typhimurium", "assay": "preincubation Ames test", "test system": "TA98", "conditions": "2.0 mg per plate", "endpoint": "revertant colonies per plate", "value": 5}
{"Compound": "CC[C@H](C)[C@@H]1NC(=O)[C@@H]2CCCN2C(=O)[C@H](CC(C)C)NC(=O)[C@H](CC(C)C)NC(=O)CNC(=O)[C@@H](NC(=O)[C@@H](NC(=O)[C@H](CC(=O)O)NC(=O)CNC(=O)[C@@H](NC(=O)[C@H](C)NC(=O)CNC(=O)[C@H](CCCCN)NC(=O)[C@H](CC(C)C)NC(=O)[C@H](CC(C)C)NC(=O)[C@H](CCCCN)NC(=O)CNC(=O)[C@@H](NC(=O)[C@@H](N)CC(C)C)C(C)C)C(C)C)C(C)C)CSSC[C@@H](C(=O)O)NC1=O", "assay": "RNA-seq, measured: Adgre5", "test system": "mouse, traumatic brain injury model, frontal cortex and hippocampus", "conditions": "dose not given", "scale": "baseline: TBI alone", "endpoint": "log2 fold change", "value": -2.01}
{"note": "A few entries again:"}
{"Compound": "COc1cccc(-c2n[nH]c(SCc3ccccn3)n2)c1OC", "tested on": "Salmonella typhimurium", "assay": "preincubation Ames test", "test system": "TA98", "conditions": "2.0 mg per plate", "endpoint": "revertant colonies per plate", "value": 5}
{"Compound": "CC[C@H](C)[C@@H]1NC(=O)[C@@H]2CCCN2C(=O)[C@H](CC(C)C)NC(=O)[C@H](CC(C)C)NC(=O)CNC(=O)[C@@H](NC(=O)[C@@H](NC(=O)[C@H](CC(=O)O)NC(=O)CNC(=O)[C@@H](NC(=O)[C@H](C)NC(=O)CNC(=O)[C@H](CCCCN)NC(=O)[C@H](CC(C)C)NC(=O)[C@H](CC(C)C)NC(=O)[C@H](CCCCN)NC(=O)CNC(=O)[C@@H](NC(=O)[C@@H](N)CC(C)C)C(C)C)C(C)C)C(C)C)CSSC[C@@H](C(=O)O)NC1=O", "assay": "RNA-seq, measured: Adgre5", "test system": "mouse, traumatic brain injury model, frontal cortex and hippocampus", "conditions": "dose not given", "scale": "baseline: TBI alone", "endpoint": "log2 fold change", "value": -2.01}
